Earlier results that unrelated publications cite.
Each line is one published result; not all experiments were run side by side.

`COc1cccc2c1c(O)c(C(=O)N(C)c1ccc(C(F)(F)F)cc1)c(=O)n2C` has a Cmax of greater than 10000 nM (mouse, prostate cancer xenograft, plasma; concentration not given, required for optimal efficacy).
For `Cn1ncnc1[C@H]1c2n[nH]c(=O)c3cc(F)cc(c23)N[C@@H]1c1ccc(F)cc1`, the Cmax was roughly 200 nM (mouse; oral, dose not given).
The Cmax of `Clc1ccc(CCCOCCCN2CCCCC2)cc1` is reported as 1500 nM (Swiss mouse, male, plasma; oral, 10 mg/kg).
`COc1cc2c(Nc3ccc(Br)cc3F)ncnc2cc1OCC1CCN(C)CC1` has a Cmax of 4260 nM (patients, plasma; dose not given, total concentration).
For `O=P(O)(O)C(Cl)(Cl)P(=O)(O)O`, the Cmax was 2770 nM (plasma; concentration not given).
The Cmax of `CS(=O)(=O)CCNCc1ccc(-c2ccc3ncnc(Nc4ccc(OCc5cccc(F)c5)c(Cl)c4)c3c2)o1` is reported as 2300 nM (patients, plasma; dose not given, total concentration).
For `C[C@@H]1C[C@H]2[C@@H]3CCC4=CC(=O)C=C[C@]4(C)[C@@]3(F)[C@@H](O)C[C@]2(C)[C@@]1(O)C(=O)CO`, the Cmax was 230 nM (plasma; concentration not given).
The Cmax of `Cn1c(=O)n(-c2ccc(C(C)(C)C#N)cc2)c2c3cc(-c4cnc5ccccc5c4)ccc3ncc21` is reported as roughly 1680 nM (nude mouse, PC-3M xenograft, plasma; 50 mg/kg, 0.5 h).
The Cmax of `O=C1c2cccc3c2[C@H](CCC3)CN1[C@@H]1CN2CCC1CC2` is reported as 0.909 ng/mL (healthy volunteers, plasma; oral, dose not given, netupitant-palonosetron combination, added: oral contraceptives).
`NC(=O)N1c2ccccc2C=Cc2ccccc21` has a Cmax of 6430 nM (plasma; concentration not given).
`Cc1nc2cccc(OCC(C)(C)C(=O)NC(C)C)c2c(N)c1C(=O)O` has a Cmax of 428 nM (rat; oral, 100 mg/kg/day, day 7).

Excerpt of the above:
The Cmax of `CS(=O)(=O)CCNCc1ccc(-c2ccc3ncnc(Nc4ccc(OCc5cccc(F)c5)c(Cl)c4)c3c2)o1` is reported as 2300 nM (patients, plasma; dose not given, total concentration).
